{"data": "Results pooled from the literature", "note": "Protocols differ between the studies behind these lines. ± marks the error that the study gave."}
{"SMILES": "CCN(CC)Cc1ccc2cc(COC(=O)Nc3ccc(C(=O)NO)cc3)ccc2c1", "system": "Sprague-Dawley rat, male, plasma", "conditions": "oral, 10 mg/kg", "MRT(0-inf) [h]": "7.76 ± 4.8"}
{"SMILES": "C=CC(=O)N1CCC([C@@H]2CCNc3c(C(N)=O)c(-c4ccc(Oc5ccccc5)cc4)nn32)CC1", "system": "Sprague-Dawley rats, plasma", "conditions": "oral, 16 mg/kg, with: posaconazole 40 mg/kg", "MRT(0-inf) [h]": "5.64 ± 1.16"}
{"SMILES": "C=CC(=O)N1CCC(Oc2cc3c(Nc4ccc(Cl)c(Cl)c4F)ncnc3cc2OC)CC1", "system": "Sprague-Dawley rat, male, plasma", "conditions": "oral, 2 mg/kg, with: vehicle pretreatment", "MRT(0-inf) [h]": "5.01 ± 0.69"}
{"SMILES": "CCCCN1CCN(C(C)C(=O)Nc2c(C)csc2C(=O)OC)CC1 (stereo not drawn)", "system": "rat (Sprague-Dawley, male), plasma", "conditions": "subcutaneous, 62.3 mmol/L", "MRT(0-inf) [h]": 1.57}
{"SMILES": "Cc1cccc(CNC(=O)c2cn(CCNC(=O)c3ccccc3Sc3c([N+](=O)[O-])ncn3C)c3cc4c(cc3c2=O)OC(F)(F)O4)n1", "system": "Sprague-Dawley rat, male, whole blood", "conditions": "intramuscular, 30 mg/kg of parent drug", "MRT(0-inf) [h]": 9.29}
{"SMILES": "CC[C@@H]([C@H](C)O)n1ncn(-c2ccc(N3CCN(c4ccc(OC[C@@H]5CO[C@@](Cn6cncn6)(c6ccc(F)cc6F)C5)cc4)CC3)cc2)c1=O", "system": "Sprague-Dawley rats, plasma", "conditions": "oral, 40 mg/kg, with: zanubrutinib 16 mg/kg", "MRT(0-inf) [h]": "15.7 ± 10.9"}
{"SMILES": "CCc1cc(C(=O)NC)c2nccc(N3CCc4c(cc(Cn5ccnc5)cc4-c4cn(C)nc4C(F)(F)F)C3=O)c2c1", "system": "Sprague Dawley rat, male, plasma", "conditions": "oral, 100 mg/kg once daily, 7 days, toxicokinetic satellite group", "MRT(0-inf) [h]": 3.9}
{"SMILES": "Cc1cccc(CNC(=O)c2cn(CCNC(=O)c3ccccc3S)c3cc4c(cc3c2=O)OC(F)(F)O4)n1", "system": "Sprague-Dawley rat, male, whole blood", "conditions": "intravenous, 5 mg/kg of parent compound", "MRT(0-inf) [h]": "4.09 ± 0.62"}
{"SMILES": "O=C1CC[C@H](N2Cc3cc(N4CCN(CC5CCN(c6ccc([C@@H]7c8ccc(O)cc8CC[C@@H]7c7ccccc7)cc6)CC5)CC4)ccc3C2=O)C(=O)N1", "test": "refers to: parent compound", "system": "Sprague-Dawley rat, male, fed, plasma", "conditions": "intravenous, 5 mg/kg", "MRT(0-inf) [h]": "3.04 ± 0.29"}
{"note": "Repeated from above:"}
{"SMILES": "O=C1CC[C@H](N2Cc3cc(N4CCN(CC5CCN(c6ccc([C@@H]7c8ccc(O)cc8CC[C@@H]7c7ccccc7)cc6)CC5)CC4)ccc3C2=O)C(=O)N1", "test": "refers to: parent compound", "system": "Sprague-Dawley rat, male, fed, plasma", "conditions": "intravenous, 5 mg/kg", "MRT(0-inf) [h]": "3.04 ± 0.29"}
